Assay results of several laboratories.
A part holds a random share of what one study measured. Substitutions count along the parent as printed.

Series 1 — target: CCNA1, cyclin fold, Cln2 fusion (human); technique: yeast growth competition, sequencing; sample: yeast; notes: weak parent motif; baseline: not given; reading: higher = stronger binding
Parent: WEE1 docking peptide (human); HKTFRKLRLFDTP
Variant | normalised enrichment score
T3F | -0.141
T12N | 0.565
R5A L7A | 0.217
L7W | 0.276
K2V | 0.189
D11K | 0.606
K6S | 0.154
F10Y | 0.215

Series 2 — technique: DHFR PCA, deep sequencing; sample: yeast; added: (+)-ABA 4.8 µM; baseline: wild-type fitted maximum; reading: higher = stronger binding
Target: ABI1, truncated, D143A, DHFR fusion (Arabidopsis thaliana)
Notes: methotrexate growth selection, single substitutions
Parent: PYL1, truncated, DHFR fusion (Arabidopsis thaliana); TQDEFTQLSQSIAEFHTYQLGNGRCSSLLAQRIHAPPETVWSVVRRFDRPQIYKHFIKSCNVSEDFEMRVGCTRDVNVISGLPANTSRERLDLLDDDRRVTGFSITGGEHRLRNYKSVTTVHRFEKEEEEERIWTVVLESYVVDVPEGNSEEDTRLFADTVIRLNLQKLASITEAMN
Variant | relative binding score [%]
I52Q | 67.3
V136D | 6.15
S9C | 53.3
E64W | 45.6
V145Q | -5.49
V44D | -13.8
L91F | 3
T173N | -1.25
V43P | -7.87
R163A | 31.4
Q7D | 75.9

Series 3 — technique: protein binding microarray; molecule type: double-stranded DNA, one strand shown; sample: in vitro; concentration: not given; baseline: not given; reading: higher = stronger binding
Target: Histone acetyltransferase KAT6A, both winged helices, GST fusion (KAT6A, Homo sapiens, UniProt Q92794, residues 1-181)
Notes: 8-mer, flanks averaged, mean of 2 arrays, mostly near background
Residues (chain): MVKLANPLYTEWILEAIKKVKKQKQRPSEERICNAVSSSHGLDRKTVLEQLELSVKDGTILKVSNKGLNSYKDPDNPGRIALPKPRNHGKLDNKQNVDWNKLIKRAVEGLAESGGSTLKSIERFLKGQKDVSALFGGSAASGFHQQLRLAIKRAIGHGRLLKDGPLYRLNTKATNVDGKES
Strand | E-score
CACGGCGC | 0.342
AAATGATA | 0.0246
CTCAGACA | -0.0908
CACAGCTG | -0.252
CCGTACAA | 0.167
CTTCGGCA | 0.143
TACGCCCA | -0.0428
CCGTCCGA | 0.189
CATCCCGA | 0.0641
CGTTTGCA | 0.0554
ACCCCTTA | -0.209

Single results of other studies
Molecule | target | assay | test system | conditions | how to read | measurement | value
PhoQ, residues 284 288 289 292 302 303 AANNSF | PhoP, residues 12 14 15 18 19 SMASL (Escherichia coli, UniProt P23836) | Sort-seq, measured: YFP reporter | E. coli | PhoQ-PhoP variant library, added: 10 µM Mg2+ | baseline: high Mg2+ state, higher = stronger signaling | fold induction | 1.21

Repeated from above (series 1):
Variant | normalised enrichment score
R5A L7A | 0.217
K6S | 0.154
D11K | 0.606
K2V | 0.189
